Assay results collected from several papers.
± gives the spread as reported.
T1: DNA aptamer; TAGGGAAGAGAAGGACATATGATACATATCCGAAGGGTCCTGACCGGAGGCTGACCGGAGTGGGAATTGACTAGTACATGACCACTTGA

SMILES = CC(=N)NCc1cccc(CN)c1; target = Nitric oxide synthase 1 (Mus musculus, UniProt Q9Z0J4); test system = adult mouse hippocampal slices; setting = 1 µM, with: BAY 60-7550 1 µM; endpoint = NMDA-evoked cGMP accumulation; result = no effect
SMILES = CCCNCC(=O)O; target = Albumin (ALB, Homo sapiens, UniProt P02768); assay = circular dichroism; setting = 0.6 mM; endpoint = β-sheet content; result = 15.3%
SMILES = COc1nc(OCc2cccc(-c3ccccc3)c2C)ccc1CNCCNC(=O)CCCc1cn(CCC(=O)N[C@@H](CC(=O)O)C(=O)N[C@@H](Cc2c[nH]cn2)C(=O)N[C@@H](CC(C)C)C(=O)N[C@@H](C)C(=O)N[C@@H](CO)C(=O)N[C@@H](CC(C)C)C(=O)N[C@@H](Cc2c[nH]c3ccccc23)C(=O)N[C@@H](Cc2c[nH]c3ccccc23)C(=O)NCC(=O)N[C@H](C(=O)N[C@@H](CCC(=O)O)C(=O)N[C@@H](CC(C)C)C(=O)O)[C@@H](C)O)nn1; target = CD274 (Homo sapiens, UniProt Q9NZQ7); assay = protein degradation, degrader, Western blot; test system = HepG2; setting = 3 µM; endpoint = onset time of degradation; result = 8 h
SMILES = Nc1c2nc(N3CCCCC3)n3c2nc[n+]1[C@@H]1O[C@H](COP(=O)(O)OP(=O)([O-])OC[C@H]2O[C@@H]3[C@H](O)[C@@H]2O)[C@@H](O)[C@H]1O; target = cADPR receptor, sea urchin; assay = Ca2+ release; test system = sea urchin egg homogenate; setting = concentration not given; endpoint = activity; result = inactive
SMILES = Cc1ccc(C(=O)Nc2cc(S(=O)(=O)O)cc3ccc(S(=O)(=O)O)cc23)cc1NC(=O)Nc1cc(C(=O)Nc2cc(S(=O)(=O)O)cc3ccc(S(=O)(=O)O)cc23)ccc1C; target = Neutrophil elastase (ELANE, Homo sapiens, UniProt P08246); assay = enzyme activity, inhibitor, chromogenic substrate hydrolysis; setting = pH 7.4, 37 °C, 100 mM NaCl, with: substrate S-1384; endpoint = Hill slope; result = 1.2 ± 0.4
SMILES = C[C@]12CC[C@@H]3c4ccc(O)cc4C(=NOCC(=O)O)C[C@H]3[C@@H]1CC[C@@H]2O; target = T1, DNA aptamer; assay = plate-ELAA; setting = NaCl 100 mM; endpoint = Kd; result = 2.22 nM
SMILES = Cc1cc(=O)oc2cc(NC(=O)CCCCCCC(=O)NO)ccc12; target = HDAC8 (Homo sapiens, UniProt Q9BY41); assay = temperature-dependent ITC; endpoint = temperature where ΔG equals ΔH; result = 329 K
SMILES = O=C(Nc1ccc(OC(F)(F)F)cc1)NC1CCN(C(=O)C2CC2)CC1; target = Ephx2 (Mus musculus, UniProt P34914); test system = wild-type mice; setting = tested 0.3 to 10 mg/kg, with: TPPU 0.3 mg/kg; endpoint = dose reaching plateau of displacement; result = 3 mg/kg
SMILES = CNc1ccccc1C(=O)O[C@H]1C[C@H](n2cnc3c(N)ncnc32)O[C@@H]1COP(=O)(O)OP(=O)(O)O; target = Unconventional myosin-Va (Gallus gallus, UniProt Q02440, D297C/G292C/I296C/S293C/V295G); assay = stopped-flow FRET, linear fit intercept; setting = 25 °C, with: MgCl2 10 mM; endpoint = dissociation rate constant; result = 8.8 ± 0.6 s⁻¹
SMILES = C=C1CN(S(=O)(=O)c2ccc(C)cc2)CCCN(Cc2ccccc2)CCCN(S(=O)(=O)c2ccc(C)cc2)C1; target = Sortilin (Homo sapiens, UniProt Q99523); assay = SILAC mass spectrometry; test system = SUP-T1, crude membrane fraction; setting = 10 µM, 17 h, reverse labelling; how to read = relative to: DMSO over compound; endpoint = protein level ratio; result = 3.48
SMILES = CCC(=C(c1ccc(Cl)cc1)c1ccc(OCCCN(C)C)cc1)c1ccccc1; target = Estrogen receptor (ESR1, Homo sapiens, UniProt P03372); assay = reporter gene, agonist, yeast estrogen screen; setting = 1 µM; how to read = relative to: DMSO; endpoint = fold activation; result = 2.2 ± 0.14 fold
SMILES = [3H]C([3H])([3H])c1cnccc1CN1C[C@@H](c2cc(F)c(F)c(F)c2)CC1=O; target = SV2A (Homo sapiens, UniProt Q7L0J3); assay = radioligand binding; test system = frontal cortex P1 fraction; how to read = relative to: Alzheimer disease over control; endpoint = specific binding ratio; result = ~1.53 fold
SMILES = C[C@H](CCC(=O)N[C@@H](CCC(=O)Nc1cccc(O)c1)C(=O)O)[C@H]1CC[C@H]2[C@@H]3[C@H](O)C[C@@H]4C[C@H](O)CC[C@]4(C)[C@H]3CC[C@]12C; target = SLC10A2 (Homo sapiens, UniProt Q12908); assay = transport, substrate; test system = ASBT-MDCK cells; setting = unit not given; how to read = relative to: taurocholate Jmax; endpoint = Jmax; result = 0.464

Some of these lines once more:
SMILES = [3H]C([3H])([3H])c1cnccc1CN1C[C@@H](c2cc(F)c(F)c(F)c2)CC1=O; target = SV2A (Homo sapiens, UniProt Q7L0J3); assay = radioligand binding; test system = frontal cortex P1 fraction; how to read = relative to: Alzheimer disease over control; endpoint = specific binding ratio; result = ~1.53 fold
SMILES = C[C@]12CC[C@@H]3c4ccc(O)cc4C(=NOCC(=O)O)C[C@H]3[C@@H]1CC[C@@H]2O; target = T1, DNA aptamer; assay = plate-ELAA; setting = NaCl 100 mM; endpoint = Kd; result = 2.22 nM
